Results of several laboratories.
A part holds a random share of what one study measured.

Study 1
Target: Ras GTPase-activating protein-binding protein 1, C-terminal RGG region (G3BP1, Homo sapiens, UniProt Q13283)
Sequence of UniProt Q13283 (whole entry, looked up): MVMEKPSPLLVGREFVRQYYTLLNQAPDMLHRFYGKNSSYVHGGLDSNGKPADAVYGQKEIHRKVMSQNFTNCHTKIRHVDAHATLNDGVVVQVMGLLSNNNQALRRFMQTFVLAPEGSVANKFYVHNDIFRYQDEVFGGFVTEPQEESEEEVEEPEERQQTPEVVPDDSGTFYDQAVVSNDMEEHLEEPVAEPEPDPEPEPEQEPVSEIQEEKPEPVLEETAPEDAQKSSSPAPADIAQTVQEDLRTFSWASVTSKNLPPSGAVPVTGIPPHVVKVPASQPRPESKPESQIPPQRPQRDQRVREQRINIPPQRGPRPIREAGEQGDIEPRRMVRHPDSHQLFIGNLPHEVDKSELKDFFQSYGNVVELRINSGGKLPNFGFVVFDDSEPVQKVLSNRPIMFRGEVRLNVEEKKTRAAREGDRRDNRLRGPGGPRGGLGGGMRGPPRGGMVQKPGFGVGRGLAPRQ
Method: RNA Bind-n-Seq
Form: RNA
Matrix: in vitro
Tested at: 1 µM
Setting: whole 134-nt RNA, ends assumed
With: 150 mM KCl
Baseline: input library
Direction: higher = stronger binding
Quantity: log2 enrichment
All sequences stand within: GGGAGUUCUACAGUCCGACGAUC … UGGAAUUCUCGGGUGUCAAGG
GUCCUGUGCUACACAUCGUAUGUACCGAAUCGGGGCCCCCGGGGCCCCCGGCCCCCGGGAAAGUAUUAUGUUACGCCGUUCGGAUCUGCA: -1.45
GUCCUGUGCUACACAUCGUAUGUACCGAAUCGGUUUUUUGGGUUUUUUGGUUUUUUGGGAAAGUAUUAUGUUACGCCGUUCGGAUCUGCA: -1.49
ACCAUGCAGGUGGGCAUCUUUGGGAAGUGGGGCAAGGGGGGGAUAGGGAGUGGGGUAACACUUUGGGAACAGGUGGUCCCAGGUCGUUUC: 2.1
AGUCCUGUGCUACACAUCGUAUGUACCGAAUCGGGAAAAGGGAAAAGGGGAAAAGGGGAAAGUAUUAUGUUACGCCGUUCGGAUCUGCAC: 0.587
CACAGACAACACGCACCCACACAGACACAGAGGGAAGAGGUUGGGAUGGGGACAGGGUGCACAGCAGGGCGGGGUAGGACCCCAGCCCCU: -0.35
AAGUCCUGUGCUACACAUCGUAUGUACCGAAUCGGGUUUUGGGUUUUGGUUUUGGGGAAAGUAUUAUGUUACGCCGUUCGGAUCUGCACU: -0.671
ACCAUGCAGGUGGGCAUCUUUGGGAAGUGGGGCAAGGGGGGGAUAGGGAGGGGGGUAACACUUUGGGAACAGGUGGUCCCAGGUCGUUUA: 2.57
CUCAAGUCCUGUGCUACACAUCGUAUGUACCGAAUCGGCCCGGCCCGGCCCGGAAAGUAUUAUGUUACGCCGUUCGGAUCUGCACUUCCA: -1.67
CUGUGCUACACAUCGUAUGUACCGAAUCGGGUUUUUUUGGGUUUUUUUGGGAAAAAAAGGGAAAGUAUUAUGUUACGCCGUUCGGAUCUG: -1.79

Study 2
Target: Sal-like protein 4, full length isoform A (SALL4, Homo sapiens, UniProt Q9UJQ4, residues 1-1053)
Sequence of UniProt Q9UJQ4 (whole entry, looked up): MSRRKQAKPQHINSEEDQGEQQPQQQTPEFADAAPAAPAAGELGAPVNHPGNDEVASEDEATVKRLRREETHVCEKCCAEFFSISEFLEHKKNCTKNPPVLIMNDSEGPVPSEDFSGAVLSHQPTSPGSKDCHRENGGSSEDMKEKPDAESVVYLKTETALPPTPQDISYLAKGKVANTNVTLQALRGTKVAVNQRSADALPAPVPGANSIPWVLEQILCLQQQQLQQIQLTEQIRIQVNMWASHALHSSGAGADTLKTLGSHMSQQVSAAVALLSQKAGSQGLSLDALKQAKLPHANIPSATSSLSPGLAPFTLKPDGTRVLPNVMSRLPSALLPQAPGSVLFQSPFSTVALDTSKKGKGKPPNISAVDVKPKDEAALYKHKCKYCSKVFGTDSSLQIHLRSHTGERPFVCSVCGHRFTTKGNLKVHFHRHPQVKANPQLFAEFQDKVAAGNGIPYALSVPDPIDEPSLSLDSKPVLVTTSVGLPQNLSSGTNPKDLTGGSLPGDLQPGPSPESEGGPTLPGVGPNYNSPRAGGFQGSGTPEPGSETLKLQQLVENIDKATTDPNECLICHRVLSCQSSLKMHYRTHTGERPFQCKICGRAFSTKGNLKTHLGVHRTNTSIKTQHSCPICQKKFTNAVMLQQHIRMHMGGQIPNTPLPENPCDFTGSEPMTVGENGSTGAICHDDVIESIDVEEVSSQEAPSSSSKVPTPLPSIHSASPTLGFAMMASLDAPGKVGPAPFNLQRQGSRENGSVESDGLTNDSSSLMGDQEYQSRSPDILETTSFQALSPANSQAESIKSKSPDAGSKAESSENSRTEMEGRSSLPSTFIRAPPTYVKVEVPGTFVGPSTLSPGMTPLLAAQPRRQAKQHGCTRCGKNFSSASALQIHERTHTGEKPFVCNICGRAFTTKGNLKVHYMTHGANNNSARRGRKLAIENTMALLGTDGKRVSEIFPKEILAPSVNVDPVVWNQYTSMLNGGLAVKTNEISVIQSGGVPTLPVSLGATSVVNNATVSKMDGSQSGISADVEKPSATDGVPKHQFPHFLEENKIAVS
Method: universal PBM
Form: double-stranded DNA, one strand shown
Matrix: in vitro
Tested at: 600 nM
Setting: 8-mer, flanks averaged, mean of replicates
Direction: higher = stronger binding
Quantity: E-score
CGCCATTC: -0.102
CTTTTCCA: 0.101
ACAGCTCT: -0.17
CACTCTGA: -0.18
TCCTTCGA: -0.0821
CGATCACG: -0.106
AAATTCCG: 0.0957
AATTTTTC: 0.336
AGCGGAAT: 0.0489
ATTCGTTC: 0.126
ACTAGTCA: 0.0201
AACTCAGC: 0.0162
AGCAGAGC: -0.211
TAAGACCA: 0.0881
GCTTAAGC: -0.0883
ACCCAAGT: -0.0516
ATGGGACC: -0.19
ATGGATTC: 0.0539
AATAGCGA: 0.143
CTCCGGTC: -0.337
GTCGCTAA: 0.0328
CCCGCTAC: -0.194
GACAGGTC: -0.197
ACGACGTA: 0.133
ACTTCGTG: -0.00622

Study 3
Target: RING finger protein unkempt homolog, zinc fingers 1-6, GST-SBP tag (UNK, Homo sapiens, UniProt Q9C0B0, residues 30-357)
Method: RNA Bind-n-Seq
Form: RNA
Matrix: in vitro
Tested at: not given
Setting: RNA with constant flanks, human and mouse sites, ends assumed
Baseline: input RNA pool
Direction: higher = stronger binding
Quantity: bound/input enrichment
All sequences stand within: GGGAGUUCUACAGUCCGACGAUC … CAACAGAGGAUUGAGCAUCA
Target sequence (chain): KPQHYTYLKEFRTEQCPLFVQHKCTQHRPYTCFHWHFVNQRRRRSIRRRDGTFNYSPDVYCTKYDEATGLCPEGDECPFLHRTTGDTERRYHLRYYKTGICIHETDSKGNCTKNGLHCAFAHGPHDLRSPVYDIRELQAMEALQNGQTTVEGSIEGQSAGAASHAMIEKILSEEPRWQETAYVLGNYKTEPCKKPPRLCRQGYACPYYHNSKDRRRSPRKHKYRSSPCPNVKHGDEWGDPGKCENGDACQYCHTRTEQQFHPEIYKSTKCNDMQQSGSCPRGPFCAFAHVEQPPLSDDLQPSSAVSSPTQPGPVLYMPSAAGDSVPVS
CUGGAAGAAACUGAAGCACUGGCCCCGGACCCUUCAGCCCAAGAGGAGCAGGGUAGGACUUCUGAUGGCUUAGGGAAGCCACCUGAACAGUUUCUAGAGAAGGAAGCUGUCAGCUCACUC: 0.0868 ratio
AAGUCUUUGGGAAGCAGUGAUUUGAAAUUUUGAGGUGACAGGCUUUUAAGGUAUAUUUUGUAGCAUGGGUUGGCAAUCUACAGCAUGUGGGCCAAAUCCAGCCUGCUGCCUGUUUUUAUA: 0.455 ratio
CUCCUAAAAACUGUACCAAUUAUUCAGAAUCAGAUGGAUGCACUUCUUGAUUUUAAUGUUAAUAGCAAUGAACUUACAAAUGGGGUAAUAAAUGCUGCCUUCAUGCUCCUGUUCAAAGAU: 0.443 ratio
AACCGUUAACAUCACUGCUGUGGCCUCAUACUCUUUUUUCCAUUUUCUACAAGAAGCCUUUUAGUAUAUGAAAAUUAUUACUCUUUUUGGGGUUUAAAGAAAUGGUCUGCAUAACCUGAA: 1.63 ratio
CUCUGCAUUGAACUUACGUAUCCAUGCCAAGGAAUGGAAUUUCCAUCCUGAGCCAGUUCAGUUAGGUGUCAAUUGAUACUAUUUUAAUUUUUUAUGCAAUCUGAUGAGAUGAGCUCAGAU: 9.19 ratio
ACCUAUGAUCGAGUAUACCAUGCUGUGUCUGUUAUGCGGCAAAGCCGAAGAUACUAUCAGUAUUCUCCCUGAUGACCCCCGACAAAUGACUCUCUUAUUCUAAGGAUCCUUCUACAGAUC: 0.0673 ratio
GGUUGCAGAUGUGUUGAACUUGACUGCUGGGAUGGAAAAGGUGAAGACCAAGAACCAAUAAUAACUCAUGGAAAAGCAAUGUGUACAGAUAUCCUUUUUAAGGAUGUAAUUCAAGCCAUC: 0.499 ratio
CAGAUUGGGAAAAUGAGGUACGUUAGUGUUCGCGAUUUUAAAGGCAAAGUGCUAAUUGAUAUUAGAGAAUAUUGGAUGGAUCCUGAAGGUGAAAUGAAACCAGGAAGAAAAGGUAUUUCU: 0.585 ratio

Study 4
Target: Histone acetyltransferase KAT6A, winged helix 1, GST fusion (KAT6A, Homo sapiens, UniProt Q92794, residues 1-85)
Method: protein binding microarray
Form: double-stranded DNA, one strand shown
Matrix: in vitro
Tested at: not given
Setting: 8-mer, flanks averaged, mean of 2 arrays, mostly near background
Baseline: not given
Direction: higher = stronger binding
Quantity: E-score
Construct (chain): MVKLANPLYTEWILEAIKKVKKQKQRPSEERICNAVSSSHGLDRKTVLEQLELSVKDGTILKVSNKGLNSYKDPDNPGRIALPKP
ACACACAC: -0.187
ACAAGCCT: -0.15
GGTTCGCA: 0.105
ACCGGTGC: 0.17
TAGATCAA: -0.346
TCGAGACA: -0.137
CGTAGGCA: 0.0517
TAGAACAA: -0.177
CTCGGTTA: 0.0421
AGTTCTGC: 0.19
AAATTAAC: -0.0741
CGGTATCA: 0.109
GAGGAGTA: -0.128
AGTCCCGC: 0.265
CTAGATGC: -0.0372
CGAGCTTA: -0.146
CTCAAGTA: -0.146
CGGGCTCC: 0.227
CAGAGAAA: -0.113
ATCAGGAG: -0.163
AGAGGAGA: -0.201

Excerpt of the above (study 4):
CTAGATGC: -0.0372
CGAGCTTA: -0.146
CTCAAGTA: -0.146
CGGGCTCC: 0.227
CAGAGAAA: -0.113
ATCAGGAG: -0.163
AGAGGAGA: -0.201
